Assay results gathered from unrelated publications.
A part holds a random share of what one study measured. Substitutions count along the parent as printed.

Block 1
Target: Sal-like protein 4, full length isoform A (SALL4, Homo sapiens, UniProt Q9UJQ4, residues 1-1053)
Chain of UniProt Q9UJQ4 (whole entry, looked up): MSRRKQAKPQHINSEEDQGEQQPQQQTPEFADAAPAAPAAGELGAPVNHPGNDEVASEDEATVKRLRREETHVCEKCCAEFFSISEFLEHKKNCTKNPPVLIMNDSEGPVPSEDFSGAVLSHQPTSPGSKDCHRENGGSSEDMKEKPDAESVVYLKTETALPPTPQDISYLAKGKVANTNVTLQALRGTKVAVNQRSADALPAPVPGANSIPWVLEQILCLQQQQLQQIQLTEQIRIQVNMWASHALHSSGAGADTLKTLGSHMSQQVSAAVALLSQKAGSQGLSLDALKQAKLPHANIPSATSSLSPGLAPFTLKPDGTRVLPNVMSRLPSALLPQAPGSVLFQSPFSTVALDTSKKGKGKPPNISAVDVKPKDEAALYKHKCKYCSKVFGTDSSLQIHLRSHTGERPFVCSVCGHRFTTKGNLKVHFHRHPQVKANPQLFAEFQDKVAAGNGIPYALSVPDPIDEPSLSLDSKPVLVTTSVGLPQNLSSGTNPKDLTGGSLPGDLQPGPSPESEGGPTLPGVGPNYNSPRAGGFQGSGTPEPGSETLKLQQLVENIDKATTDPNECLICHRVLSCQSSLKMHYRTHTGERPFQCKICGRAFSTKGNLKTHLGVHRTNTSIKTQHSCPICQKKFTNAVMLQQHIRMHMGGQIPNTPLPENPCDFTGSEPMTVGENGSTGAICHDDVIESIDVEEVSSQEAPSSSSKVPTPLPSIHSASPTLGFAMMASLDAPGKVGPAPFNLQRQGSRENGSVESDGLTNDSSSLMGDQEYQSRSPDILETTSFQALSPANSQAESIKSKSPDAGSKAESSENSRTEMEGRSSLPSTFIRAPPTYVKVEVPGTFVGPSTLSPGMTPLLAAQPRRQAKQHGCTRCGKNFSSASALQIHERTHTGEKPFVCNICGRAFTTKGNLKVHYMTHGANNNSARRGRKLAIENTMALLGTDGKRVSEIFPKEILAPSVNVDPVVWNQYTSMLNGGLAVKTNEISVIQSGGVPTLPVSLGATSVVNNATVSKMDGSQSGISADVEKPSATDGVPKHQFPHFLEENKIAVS
Technique: universal PBM
Form: double-stranded DNA, one strand shown
Medium: in vitro
Tested at: 600 nM
Notes: 8-mer, flanks averaged, mean of replicates
Direction: higher = stronger binding
Measurement: E-score
ATGTAAGC: 0.0714
ATCCCCCA: -0.137
CAAAGGCA: -0.0716
CCCCCGTA: -0.362
ATATGCTA: 0.274
GGCATTAA: 0.107
CTCACAGC: -0.205
CTATGGTA: 0.128
AATCGACA: 0.236
AGGGCCAC: -0.305
CTCTAACC: -0.271
CTCGGAAA: -0.0377
CAATTATG: 0.358
CTGGACCA: -0.216
CAGGTGCC: -0.298
CATGTCCG: -0.29
GGAGGAAA: -0.116
ATTAGCTC: 0.102

Block 2
Target: ABI1, truncated, D143A, DHFR fusion (Arabidopsis thaliana, UniProt P49597)
Technique: DHFR PCA, dose-response
Medium: yeast
Notes: Hill fit, mean, not affinity
Added: (+)-ABA, dose series
Direction: lower = more sensitive
Measurement: ABA EC50
Starting sequence: PYL1, truncated, DHFR fusion (Arabidopsis thaliana, UniProt Q8VZS8); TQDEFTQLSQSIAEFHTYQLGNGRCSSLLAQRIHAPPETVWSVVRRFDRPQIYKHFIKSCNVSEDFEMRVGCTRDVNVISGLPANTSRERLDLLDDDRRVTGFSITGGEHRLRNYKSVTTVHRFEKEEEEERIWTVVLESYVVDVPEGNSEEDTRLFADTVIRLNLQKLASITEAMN
G107P: 321 µM
Q51A: 66.8 µM
S9H: 2.73 µM
V70N: 36.6 µM
Y18W: 3.69 µM
Y115M: 172 µM
L29Y: 93.8 µM
R88S: 3.35 µM
S80P: 168 µM
R45K: 9.32 µM
N22A: 2.36 µM
S42Y: 33.3 µM
S42P: 22.4 µM
L94S: 137 µM
N165S: 300 µM
P37T: 15.6 µM
E128C: 2.05 µM
I79S: 14 µM
R45T: 195 µM
S42H: 5.52 µM
W41Y: 107 µM
L29V: 2.4 µM

Block 3
Target: RNA binding protein fox-1 homolog 2, RRM domain, GST-SBP tag (RBFOX2, Homo sapiens, UniProt O43251-10, residues 100-194)
Technique: RNA Bind-n-Seq
Form: RNA
Medium: in vitro
Tested at: 365 nM
Notes: natural RNA segment, single round, ends assumed
Relative to: no-protein control
Direction: higher = stronger binding
Measurement: RBNS enrichment (R)
Residues (chain): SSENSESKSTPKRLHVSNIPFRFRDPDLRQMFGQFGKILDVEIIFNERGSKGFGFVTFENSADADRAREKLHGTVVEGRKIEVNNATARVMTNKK
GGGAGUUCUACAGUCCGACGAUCUUUUGAGAUUAAAAAAAAUACUUCUAGCUUUAGCCAGGUGUGCAUGUUGCUGCCAUUUUGCAUUUUUGAAUCAUCUUGUGUAAUUGUCACCAUGAAAGUGUUACUCAGAAUGGAAUUCUCGGGUGCCAA: 12.9
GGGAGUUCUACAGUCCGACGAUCGGCUGAACUUGAUAGCAGACCUGCUCGGGUCCCUGCCUCCCACUCUGGCCUCUGCCUUUCUCCCUCCUGCCUUCUGCUUGGGGAACUCAGGGCUUCACUCCCAGAGCACCUGGAAUUCUCGGGUGCCAA: 0.315
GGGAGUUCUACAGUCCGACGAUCUAGAUUUUAAAACACUUAACCAAGCCAUUACAUCUUAAAAACAAAACAAGUAGCAUACAUUUUGUAAUUAACAUUGAUAAACACUGUGAUUUUUUUGGUUAAGACUUUUUUGGAAUUCUCGGGUGCCAA: 0.632
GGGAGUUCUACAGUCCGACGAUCUCAGAAUCUAUAGUGGUGGCAAAGUUAGGAUAGCUCUUUAGUAAUUUGGGCCCAGUGCCUUGGUGAAGGUUGAUUAGCUUGACUGUCUUUGAAAGUAUCUGAUGGAGCUCUGGAAUUCUCGGGUGCCAA: 0.385
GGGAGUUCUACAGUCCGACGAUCAACACUUGGGAUUUUUCUCCUAUGUCCCGAGGUCUGGUCUUGAUUUCUUUUUUGGGUUUCUUUCUAGGAAAAUGAGAAGUGCAUGCAAGGGGCAGGAGAUGACCCUCCCCUGGAAUUCUCGGGUGCCAA: 23.3
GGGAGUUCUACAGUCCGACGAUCUUUGUAUUUGGUAGUCUUAAUGUAUCUGGCAUUUGGGUGAACUGUGGACAUACUAGAGUUGAUUAUAGACACAUUGAUUUUGAAUAAGGAACUGCUGGCCGAGCCCGCUGUGGAAUUCUCGGGUGCCAA: 1.66
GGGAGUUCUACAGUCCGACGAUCAGUAGUUCAGAUUCUUGCAUGAGCAAUUGACAGCAUCAGAGCACACAAUAUCAUAAGUUACAUAAAUUACACAAAGUACAUCAUAAAUUACACUACAGACACGUUAGGUAUGGAAUUCUCGGGUGCCAA: 2.37
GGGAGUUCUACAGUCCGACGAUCCUCCCUACUGCGCCCCUGUAGGCAGGAGGAAGCAGCCCAUCAGCCUAGGAAGCCAACAGCAGGGCAGGUCAACUGUAGCUUAACCUUUAGAGCUCUUCAAGGUGCAGGGAUGGAAUUCUCGGGUGCCAA: 0.45

Block 4
Target: Centromere-binding protein 1, full length, His-tagged (CBF1, Saccharomyces cerevisiae, UniProt P17106, residues 1-351)
Chain of UniProt P17106 (whole entry, looked up): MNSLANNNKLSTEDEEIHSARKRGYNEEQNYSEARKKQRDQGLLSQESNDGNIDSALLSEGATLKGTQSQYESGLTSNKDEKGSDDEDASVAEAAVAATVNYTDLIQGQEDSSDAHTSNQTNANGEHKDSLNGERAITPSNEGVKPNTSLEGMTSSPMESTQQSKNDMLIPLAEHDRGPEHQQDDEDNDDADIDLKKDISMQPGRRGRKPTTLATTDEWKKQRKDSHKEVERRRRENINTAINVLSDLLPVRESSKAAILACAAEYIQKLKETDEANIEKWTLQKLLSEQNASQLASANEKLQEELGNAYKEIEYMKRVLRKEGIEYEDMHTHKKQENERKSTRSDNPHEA
Technique: competition protein-binding microarray
Form: double-stranded DNA, one strand shown
Medium: in vitro
Tested at: 2 µM
Notes: whole 60-bp probe, lowest competitor level
Added: Pho4 competitor, 0.05 µM
Direction: higher = stronger binding
Measurement: fluorescence intensity
ATAAGTTTCCCTGGTTACGTGTTGAAGCAGACCGCAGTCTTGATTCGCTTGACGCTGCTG: 102 a.u.
AATTGGCGTAATCCAGCCGTGATGGCGATGACCAGGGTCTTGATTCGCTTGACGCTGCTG: 56.6 a.u.
GTCTTGTCTCATTGGGCCGTGGGTGTCCCCACTTCAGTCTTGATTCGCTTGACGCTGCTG: 71 a.u.
CTAACGAAGGTTTGCAAGGTGGGTGACAAGCCAAGTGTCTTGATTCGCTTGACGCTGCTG: 69.6 a.u.
ATCTGGAAACTCCGACGCGTGAGGCCTCGCGTCGCTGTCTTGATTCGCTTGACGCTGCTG: 69.1 a.u.
TATGCCCATCCCAAGATCATGCCCGGGAGAGCAAATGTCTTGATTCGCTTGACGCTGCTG: 56.1 a.u.
CGGGGTTAAGTTTTTCACGTGTGGTGCTTGCAGCAGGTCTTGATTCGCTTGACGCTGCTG: 425 a.u.
AAGTTTCGGAATACACTCGTGCTTTCAACCTAAGACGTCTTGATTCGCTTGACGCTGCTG: 127 a.u.
TACACCGCACTTTCTGGCGTGCTTTGATCTGGCTTGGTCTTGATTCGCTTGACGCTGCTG: 56.3 a.u.
GGCCCATGAACCCATCACGTTTTTCTAATGCAGGGCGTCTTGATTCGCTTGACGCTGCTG: 498 a.u.
AAAGCGGTAATTTGAACCGTGGGTGCAGATATCTATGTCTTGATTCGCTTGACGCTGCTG: 62.6 a.u.
CTATGACGAATCAATGACATGACAACATTTACCAATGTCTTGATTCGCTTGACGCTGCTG: 90.4 a.u.
CGTCCTAGTGATTGCAAGGTGGGTGCCATGAGGAAGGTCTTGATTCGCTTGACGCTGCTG: 80.7 a.u.
TCGGTCTTCTTGATGCTCGTGAACGCCATTTGGTCCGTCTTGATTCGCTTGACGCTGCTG: 93.2 a.u.
AAATTACTAAGTTGGTAGGTGGGTGACGCCGTATGAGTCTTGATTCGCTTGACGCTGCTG: 67.5 a.u.
TGGAAGTATTTTACCCACGTATGGCAGGCAAGAACGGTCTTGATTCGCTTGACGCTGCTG: 71.3 a.u.
GAAAGGGTTTAGTACCACATGCTATGATGCCCACTGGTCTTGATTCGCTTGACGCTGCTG: 105 a.u.
GTCTTGTCTCATTTTCACGTGGCGTTCCCCACTTCAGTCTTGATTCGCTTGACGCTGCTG: 569 a.u.
AAAATGCCAAAGTTCCACGTGCATCCAAACCAGTAGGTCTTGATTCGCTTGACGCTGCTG: 1190 a.u.

Block 5
Target: CCNB3, cyclin fold, Cln2 fusion (human)
Technique: yeast growth competition, sequencing
Medium: yeast
Notes: weak parent motif
Relative to: not given
Direction: higher = stronger binding
Measurement: normalised enrichment score
Starting sequence: CDC6 docking peptide (human); TLKGRRLVFDNQL
TLKHRRLVFDNQL [G4H]: 0.344
TLKGRRLVFWNQL [D10W]: 0.0635
TGKGRRLVFDNQL [L2G]: 0.175
TLKGRRLVFDNLL [Q12L]: 0.434
TLKNRRLVFDNQL [G4N]: 0.0979
TLKGRRLVFRNQL [D10R]: 0.271
TLKGRALVFDNQL [R6A]: 0.00908
TLKGRRLVFDYQL [N11Y]: 0.606
TLKGRRLVFHNQL [D10H]: -0.00628
TLKGRRLVFDKQL [N11K]: 0.0995
TLKGRRLMFDNQL [V8M]: -0.0311
HLKGRRLVFDNQL [T1H]: -0.0828
TRKGRRLVFDNQL [L2R]: 0.513

Repeated from above (block 3):
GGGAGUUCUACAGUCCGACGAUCGGCUGAACUUGAUAGCAGACCUGCUCGGGUCCCUGCCUCCCACUCUGGCCUCUGCCUUUCUCCCUCCUGCCUUCUGCUUGGGGAACUCAGGGCUUCACUCCCAGAGCACCUGGAAUUCUCGGGUGCCAA: 0.315
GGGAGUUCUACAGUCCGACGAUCCUCCCUACUGCGCCCCUGUAGGCAGGAGGAAGCAGCCCAUCAGCCUAGGAAGCCAACAGCAGGGCAGGUCAACUGUAGCUUAACCUUUAGAGCUCUUCAAGGUGCAGGGAUGGAAUUCUCGGGUGCCAA: 0.45
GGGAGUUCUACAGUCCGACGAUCUCAGAAUCUAUAGUGGUGGCAAAGUUAGGAUAGCUCUUUAGUAAUUUGGGCCCAGUGCCUUGGUGAAGGUUGAUUAGCUUGACUGUCUUUGAAAGUAUCUGAUGGAGCUCUGGAAUUCUCGGGUGCCAA: 0.385
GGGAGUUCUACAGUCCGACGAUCUAGAUUUUAAAACACUUAACCAAGCCAUUACAUCUUAAAAACAAAACAAGUAGCAUACAUUUUGUAAUUAACAUUGAUAAACACUGUGAUUUUUUUGGUUAAGACUUUUUUGGAAUUCUCGGGUGCCAA: 0.632
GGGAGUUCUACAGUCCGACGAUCUUUUGAGAUUAAAAAAAAUACUUCUAGCUUUAGCCAGGUGUGCAUGUUGCUGCCAUUUUGCAUUUUUGAAUCAUCUUGUGUAAUUGUCACCAUGAAAGUGUUACUCAGAAUGGAAUUCUCGGGUGCCAA: 12.9
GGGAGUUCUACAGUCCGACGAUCAACACUUGGGAUUUUUCUCCUAUGUCCCGAGGUCUGGUCUUGAUUUCUUUUUUGGGUUUCUUUCUAGGAAAAUGAGAAGUGCAUGCAAGGGGCAGGAGAUGACCCUCCCCUGGAAUUCUCGGGUGCCAA: 23.3
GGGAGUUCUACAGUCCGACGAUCUUUGUAUUUGGUAGUCUUAAUGUAUCUGGCAUUUGGGUGAACUGUGGACAUACUAGAGUUGAUUAUAGACACAUUGAUUUUGAAUAAGGAACUGCUGGCCGAGCCCGCUGUGGAAUUCUCGGGUGCCAA: 1.66
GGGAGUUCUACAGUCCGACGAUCAGUAGUUCAGAUUCUUGCAUGAGCAAUUGACAGCAUCAGAGCACACAAUAUCAUAAGUUACAUAAAUUACACAAAGUACAUCAUAAAUUACACUACAGACACGUUAGGUAUGGAAUUCUCGGGUGCCAA: 2.37
